Results gathered from unrelated publications.
Each line is one published result; not all experiments were run side by side.
AR: Androgen receptor (AR, Homo sapiens, UniProt P10275)
Chain of UniProt P10275 (whole entry, looked up): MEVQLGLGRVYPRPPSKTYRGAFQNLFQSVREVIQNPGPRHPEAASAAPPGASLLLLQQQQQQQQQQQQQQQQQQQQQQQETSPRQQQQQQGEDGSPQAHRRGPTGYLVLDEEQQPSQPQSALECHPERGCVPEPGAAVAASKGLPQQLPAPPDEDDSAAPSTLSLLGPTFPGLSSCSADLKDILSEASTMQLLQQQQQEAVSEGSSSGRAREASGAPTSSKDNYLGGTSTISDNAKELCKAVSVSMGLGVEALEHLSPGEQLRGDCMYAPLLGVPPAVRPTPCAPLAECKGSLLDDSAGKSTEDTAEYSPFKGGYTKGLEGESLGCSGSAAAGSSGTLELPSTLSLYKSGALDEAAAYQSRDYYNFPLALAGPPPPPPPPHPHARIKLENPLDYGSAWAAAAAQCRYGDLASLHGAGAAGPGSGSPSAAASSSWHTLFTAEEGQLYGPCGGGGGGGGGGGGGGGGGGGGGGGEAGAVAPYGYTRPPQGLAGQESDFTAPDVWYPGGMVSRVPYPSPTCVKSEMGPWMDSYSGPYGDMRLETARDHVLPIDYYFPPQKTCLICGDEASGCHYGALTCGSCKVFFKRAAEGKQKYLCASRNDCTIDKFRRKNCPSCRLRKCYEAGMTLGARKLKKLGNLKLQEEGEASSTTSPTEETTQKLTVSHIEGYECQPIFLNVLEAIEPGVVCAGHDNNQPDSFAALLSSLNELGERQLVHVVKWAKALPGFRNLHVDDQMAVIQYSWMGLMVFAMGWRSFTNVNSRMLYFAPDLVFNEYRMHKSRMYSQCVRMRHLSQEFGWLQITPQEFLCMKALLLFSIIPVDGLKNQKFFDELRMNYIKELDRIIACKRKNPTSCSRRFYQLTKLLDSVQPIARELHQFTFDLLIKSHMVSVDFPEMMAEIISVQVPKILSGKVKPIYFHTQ
CASP4: Caspase-4 (CASP4, Homo sapiens, UniProt P49662)
Chain of UniProt P49662 (whole entry, looked up): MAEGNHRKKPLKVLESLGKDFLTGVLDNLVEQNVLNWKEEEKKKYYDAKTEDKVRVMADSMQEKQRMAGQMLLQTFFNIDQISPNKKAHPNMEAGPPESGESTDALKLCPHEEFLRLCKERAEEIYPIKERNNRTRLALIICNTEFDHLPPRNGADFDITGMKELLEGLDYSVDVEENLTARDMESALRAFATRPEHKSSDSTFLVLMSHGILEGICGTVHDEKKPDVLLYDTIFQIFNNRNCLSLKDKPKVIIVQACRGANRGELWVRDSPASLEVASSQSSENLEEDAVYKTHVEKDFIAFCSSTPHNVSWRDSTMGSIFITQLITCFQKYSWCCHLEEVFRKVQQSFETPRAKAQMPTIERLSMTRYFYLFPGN
Chain of UniProt P27472 (whole entry, looked up): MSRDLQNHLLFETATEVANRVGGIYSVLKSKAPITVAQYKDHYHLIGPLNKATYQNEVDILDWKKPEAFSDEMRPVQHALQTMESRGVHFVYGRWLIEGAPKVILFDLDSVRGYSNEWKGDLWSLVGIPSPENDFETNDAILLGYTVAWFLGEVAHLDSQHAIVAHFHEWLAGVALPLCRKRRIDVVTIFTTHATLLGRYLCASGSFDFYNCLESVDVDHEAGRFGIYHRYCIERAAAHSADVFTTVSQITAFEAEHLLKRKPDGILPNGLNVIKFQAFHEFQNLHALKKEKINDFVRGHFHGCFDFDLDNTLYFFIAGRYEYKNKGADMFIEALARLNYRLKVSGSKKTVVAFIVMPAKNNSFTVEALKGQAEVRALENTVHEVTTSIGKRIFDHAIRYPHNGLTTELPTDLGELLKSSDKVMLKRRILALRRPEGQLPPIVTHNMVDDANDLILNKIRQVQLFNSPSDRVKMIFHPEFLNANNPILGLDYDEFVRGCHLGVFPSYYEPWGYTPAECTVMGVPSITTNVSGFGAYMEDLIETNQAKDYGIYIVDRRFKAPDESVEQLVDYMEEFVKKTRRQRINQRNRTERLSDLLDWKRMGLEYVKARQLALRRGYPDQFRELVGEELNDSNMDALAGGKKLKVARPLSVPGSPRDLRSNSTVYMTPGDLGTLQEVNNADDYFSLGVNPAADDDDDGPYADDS
Chain of UniProt P02730 (whole entry, looked up): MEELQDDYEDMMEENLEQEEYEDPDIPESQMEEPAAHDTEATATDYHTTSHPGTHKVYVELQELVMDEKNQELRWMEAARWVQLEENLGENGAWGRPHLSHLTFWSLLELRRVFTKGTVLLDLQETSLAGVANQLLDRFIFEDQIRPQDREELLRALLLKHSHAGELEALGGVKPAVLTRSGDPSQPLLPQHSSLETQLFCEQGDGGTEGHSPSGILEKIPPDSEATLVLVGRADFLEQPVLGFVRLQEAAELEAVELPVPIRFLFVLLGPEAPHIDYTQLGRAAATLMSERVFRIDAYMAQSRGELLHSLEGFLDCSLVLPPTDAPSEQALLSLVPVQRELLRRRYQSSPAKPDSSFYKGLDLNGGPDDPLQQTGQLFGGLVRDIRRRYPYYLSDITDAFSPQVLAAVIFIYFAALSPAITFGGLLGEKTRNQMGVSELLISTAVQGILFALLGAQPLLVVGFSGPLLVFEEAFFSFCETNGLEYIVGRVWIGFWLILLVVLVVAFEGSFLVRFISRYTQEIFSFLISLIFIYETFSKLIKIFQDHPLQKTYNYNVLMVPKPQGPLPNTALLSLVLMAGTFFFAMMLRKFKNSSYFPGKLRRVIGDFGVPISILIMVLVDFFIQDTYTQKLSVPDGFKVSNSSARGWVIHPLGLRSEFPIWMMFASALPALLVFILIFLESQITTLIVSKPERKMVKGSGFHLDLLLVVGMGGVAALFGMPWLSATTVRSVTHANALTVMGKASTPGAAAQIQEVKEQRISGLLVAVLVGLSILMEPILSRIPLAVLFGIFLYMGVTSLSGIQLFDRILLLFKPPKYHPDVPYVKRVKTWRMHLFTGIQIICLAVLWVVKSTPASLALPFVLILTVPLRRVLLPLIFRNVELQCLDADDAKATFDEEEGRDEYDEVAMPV
Chain of UniProt Q01581 (whole entry, looked up): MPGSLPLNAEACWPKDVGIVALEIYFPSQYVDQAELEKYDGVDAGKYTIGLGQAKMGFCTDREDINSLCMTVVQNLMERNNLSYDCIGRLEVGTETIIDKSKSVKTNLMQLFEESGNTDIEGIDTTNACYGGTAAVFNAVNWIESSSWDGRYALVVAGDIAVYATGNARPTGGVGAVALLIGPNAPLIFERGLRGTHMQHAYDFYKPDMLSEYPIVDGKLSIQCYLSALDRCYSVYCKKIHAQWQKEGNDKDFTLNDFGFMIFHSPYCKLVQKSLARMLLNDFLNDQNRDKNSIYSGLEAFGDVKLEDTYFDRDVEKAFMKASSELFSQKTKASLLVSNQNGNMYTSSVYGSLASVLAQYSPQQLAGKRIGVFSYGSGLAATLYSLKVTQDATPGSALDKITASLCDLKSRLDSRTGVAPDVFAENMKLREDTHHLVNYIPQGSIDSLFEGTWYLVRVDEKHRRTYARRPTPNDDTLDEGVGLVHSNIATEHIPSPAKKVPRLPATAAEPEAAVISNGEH
Chain of UniProt P00330 (whole entry, looked up): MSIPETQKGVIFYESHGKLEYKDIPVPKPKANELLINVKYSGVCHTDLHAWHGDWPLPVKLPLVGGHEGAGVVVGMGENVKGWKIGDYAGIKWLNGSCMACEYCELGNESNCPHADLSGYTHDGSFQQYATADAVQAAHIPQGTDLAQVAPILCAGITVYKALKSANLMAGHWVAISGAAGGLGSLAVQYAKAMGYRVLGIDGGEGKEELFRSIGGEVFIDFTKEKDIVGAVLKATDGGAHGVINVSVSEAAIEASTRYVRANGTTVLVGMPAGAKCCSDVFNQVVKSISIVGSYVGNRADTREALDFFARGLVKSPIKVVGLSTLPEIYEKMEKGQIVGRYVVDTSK
Chain of UniProt P06536 (whole entry, looked up): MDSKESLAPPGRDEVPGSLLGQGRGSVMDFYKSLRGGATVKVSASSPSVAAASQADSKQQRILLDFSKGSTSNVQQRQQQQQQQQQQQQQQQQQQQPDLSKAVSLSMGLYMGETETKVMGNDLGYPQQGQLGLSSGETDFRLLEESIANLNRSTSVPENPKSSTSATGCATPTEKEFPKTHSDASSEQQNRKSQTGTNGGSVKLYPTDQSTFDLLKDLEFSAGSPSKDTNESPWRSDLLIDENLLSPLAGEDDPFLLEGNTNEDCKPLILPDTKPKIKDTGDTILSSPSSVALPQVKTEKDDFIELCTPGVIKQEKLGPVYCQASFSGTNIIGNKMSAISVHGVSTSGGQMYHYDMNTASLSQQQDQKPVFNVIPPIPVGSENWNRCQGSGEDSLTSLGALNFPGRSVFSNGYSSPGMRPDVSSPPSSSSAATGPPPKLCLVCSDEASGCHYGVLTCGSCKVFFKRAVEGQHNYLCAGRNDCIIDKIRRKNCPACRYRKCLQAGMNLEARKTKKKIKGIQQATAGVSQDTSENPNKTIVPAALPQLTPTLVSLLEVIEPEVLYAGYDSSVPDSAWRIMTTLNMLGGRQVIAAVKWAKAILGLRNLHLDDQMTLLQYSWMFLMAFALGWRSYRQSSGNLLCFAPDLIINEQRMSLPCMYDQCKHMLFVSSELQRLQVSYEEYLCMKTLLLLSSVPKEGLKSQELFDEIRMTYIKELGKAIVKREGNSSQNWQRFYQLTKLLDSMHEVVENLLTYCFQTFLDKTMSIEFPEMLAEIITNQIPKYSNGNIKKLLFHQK

Structure (SMILES) = Cn1c(=O)c2[nH]c(Cc3ccccc3)nc2n(C)c1=O; target = AR; assay = reporter gene, antagonist, PSA-luciferase; system = HeLa-A6; setting = 10 µM, 24 h, with: 5 nM dihydrotestosterone; how to read = reference: maximal activity; remaining activity = 102%
Structure (SMILES) = Cc1ccc(C(=O)c2ccc(CC(=O)O)n2C)cc1; target = CASP4; setting = 33 µM, with: LEHD substrate; how to read = reference: solvent control; remaining activity = 8.64%
Structure (SMILES) = CCOC(=O)OC(=O)OCC; target = ADH1 (Saccharomyces cerevisiae, UniProt P00330); assay = enzyme activity, inactivator; setting = 90 µM, pH 8.0, 30 °C, turnover number; remaining activity = 12 s⁻¹
Structure (SMILES) = CCCCCCCCCCSc1nc2c([nH]1)c(=O)n(C)c(=O)n2C; target = AR; assay = reporter gene, antagonist, PSA-luciferase; system = HeLa-A6; setting = 10 µM, 24 h, with: 5 nM dihydrotestosterone; how to read = reference: maximal activity; remaining activity = 107%
Structure (SMILES) = [Na+].[Na+].[Na+].[O]=[V]([O-])([O-])[O-]; target = bovine intestinal alkaline phosphatase; assay = rapid dilution; setting = 10-fold IC50, 30 min preincubation; remaining activity = 73%
Structure (SMILES) = CN1CCCC1CCn1cnc(-c2ccccc2)c1-c1ccncc1 (centres unmarked); target = Glycogen [starch] synthase isoform 2 (GSY2, Saccharomyces cerevisiae, UniProt P27472); assay = inhibitor, 14C-glucose incorporation; setting = 300 µM; how to read = reference: control; remaining activity = > 95%
Structure (SMILES) = O=S(=O)(O)c1cc(N=C=S)ccc1C=Cc1ccc(N=C=S)cc1S(=O)(=O)O; target = SLC4A1 (Homo sapiens, UniProt P02730); assay = chloride self-exchange flux; system = human erythrocytes; setting = concentration not given, pH 7.2, 38 °C, after maximal covalent binding; how to read = reference: untreated; remaining activity = 0.2%
Structure (SMILES) = COc1ccc(-c2cc(=S)ss2)cc1; target = CASP4; setting = 33 µM, with: LEHD substrate; how to read = reference: solvent control; remaining activity = 24.5%
Structure (SMILES) = CC(=C\C(=O)O)/C=C(\C)C[C@H](C)CCCC[C@H]1OC(=O)[C@@H]1CO; target = HMGCS1 (Homo sapiens, UniProt Q01581); assay = covalent inhibitor, DTNB; setting = 20 µM, pH 8.0, room temperature, with: acetyl-CoA 400 µM, acetoacetyl-CoA 7 µM; remaining activity = < 10%
Structure (SMILES) = O=c1c2ccccc2[se]n1-c1ccccc1; target = CASP4; setting = 33 µM, with: LEHD substrate; how to read = reference: solvent control; remaining activity = 5.95%
Structure (SMILES) = CCCSc1nc2c([nH]1)c(=S)n(C)c(=S)n2C; target = Nr3c1 (Rattus norvegicus, UniProt P06536); assay = reporter gene, antagonist, MMTV-luciferase; system = T47D/A1-2; setting = 10 µM, 24 h, with: 5 nM dexamethasone; how to read = reference: maximal activity; remaining activity = 79%

Excerpt of the above:
Structure (SMILES) = CCCCCCCCCCSc1nc2c([nH]1)c(=O)n(C)c(=O)n2C; target = AR; assay = reporter gene, antagonist, PSA-luciferase; system = HeLa-A6; setting = 10 µM, 24 h, with: 5 nM dihydrotestosterone; how to read = reference: maximal activity; remaining activity = 107%
